# Results gathered from unrelated publications.
# Each line is one published result; not all experiments were run side by side. Several values in a cell are separate wells, animals, samples, runs or records. ± gives the spread as reported.
Structure (SMILES),cell line,assay,conditions,scale,viability
Cc1cn([C@H]2C[C@H](O)[C@@H](CO)O2)c(=O)nc1N,OCI-Ly1,,"0.1 µM, 120 h",,189%
O=C(c1ccc(F)cc1)c1ccc2[nH]c(CO)nc2c1,sample A patient iPSC-derived NPCs,MTS,"10 µM, 24 h",baseline: vehicle,99.39 ± 0.7%
Cc1ccc(CNC(=O)Cn2cc(CSc3nc4ccccc4[nH]3)nn2)cc1,Caco-2,MTT,125 ppm,,13.1%
Nc1cccc2c1C(=O)N(C1CCC(=O)NC1=O)C2=O (stereo not drawn),MM1.S,XTT,1.2 µM,,28% and 31% and 16%
Fc1ccc(CNc2ccc3scnc3c2)cc1,sample A patient iPSC-derived NPCs,MTS,"10 µM, 24 h",baseline: vehicle,114 ± 1.51%
CCOC(=O)NCCCC(=O)NCCc1ccccc1,OCI-Ly1,,"1 µM, 120 h",,134%
FC(F)(F)c1ccc(CNc2ccc3ncsc3c2)cc1,sample A patient iPSC-derived NPCs,MTS,"10 µM, 24 h",baseline: vehicle,131 ± 12.3%
COc1ccc(-n2nc(C(C)=O)s/c2=N\N=C(/C)c2ccc(NC(=O)c3ccc(Cl)cc3)cc2)cc1,HepG2,,0.312 µM,,14.1%
COc1cc(OC)c2c(=O)[nH]c(-c3cc(C)c(OCCO)c(C)c3)nc2c1,OCI-Ly1,,"0.1 µM, 120 h",,179%
Cc1nc2ccc(NCc3ccc(OC(F)(F)F)cc3)cc2[nH]1,sample A patient iPSC-derived NPCs,MTS,"10 µM, 24 h",baseline: vehicle,132 ± 7.78%
COc1cc2ncnc(Nc3ccc(Oc4ccccc4)cc3C)c2cc1OC,COLO 205 (BRAF V600E),resazurin,"0.3 µM, 72 h, added: trametinib 0 nM",,100%
Cc1nc2ccc(OCc3ccc(OC(F)(F)F)cc3)cc2[nH]1,sample A patient iPSC-derived NPCs,MTS,"10 µM, 24 h",baseline: vehicle,136 ± 8.75%
Cc1cccc(-c2[nH]c(CNc3ccccc3F)nc2-c2ccc3ncnn3c2)n1,MM1.S pomalidomide-resistant,XTT,0.25 µM,baseline: untreated,98%
CNCc1ccc(-c2[nH]c3cc(F)cc4c3c2CCNC4=O)cc1,OCI-Ly1,,"0.5 µM, 120 h",,155%
FC(F)(F)c1ccc(COc2ccc3nc[nH]c3c2)cc1,sample A patient iPSC-derived NPCs,MTS,"10 µM, 24 h",baseline: vehicle,105.3 ± 0.93%
COc1cc2c(cc1-c1c(C)noc1C)ncc1[nH]c(=O)n([C@H](C)c3ccccn3)c12,OCI-Ly1,,"0.5 µM, 120 h",,32.2%
COc1cc2ncnc(Nc3ccc(Oc4ccccc4)c(C)c3C)c2cc1OC,COLO 205 (BRAF V600E),resazurin,"0.1 µM, 72 h, added: trametinib",baseline: DMSO,101%
NC(=O)c1cccc(NC(=O)/C=C/c2c[nH]c3ccccc23)c1,OCI-Ly1,,"0.5 µM, 120 h",,114%
OCc1nc2ccc(NCc3ccc(SC(F)(F)F)cc3)cc2[nH]1,sample A patient iPSC-derived NPCs,MTS,"10 µM, 24 h",baseline: vehicle,148 ± 3.43%
O=C(/C=C/c1ccc(CN(CCO)CCc2c[nH]c3ccccc23)cc1)NO,OCI-Ly1,,"0.5 µM, 120 h",,2.37%
NCc1cc2c(cc1F)C(=O)N(C1CCC(=O)NC1=O)C2 (stereo not drawn),KG-1,CellTiter-Glo,"concentration not given, 10% FBS",,decreased
